Measurements gathered from unrelated publications.
Parts stem from different laboratories: compare values within a part only. Substitutions count along the parent as printed.

Series 1
Target: RNA binding protein fox-1 homolog 2, RRM domain, GST-SBP tag (RBFOX2, Homo sapiens, UniProt O43251-10, residues 100-194)
Method: RNA Bind-n-Seq
Form: RNA
Matrix: in vitro
Tested at: 365 nM
Setting: natural RNA segment, single round, ends assumed
Baseline: no-protein control
Direction: higher = stronger binding
Constant ends, left off below: GGGAGUUCUACAGUCCGACGAUC … UGGAAUUCUCGGGUGCCAA
Construct (chain): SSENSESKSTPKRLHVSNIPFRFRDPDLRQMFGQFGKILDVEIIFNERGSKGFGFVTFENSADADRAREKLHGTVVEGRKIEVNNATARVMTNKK
| Strand | RBNS enrichment (R) |
| --- | --- |
| GCCCUGCCAUCAGCUUUUGGGGCCUCAGCAAGGCCUCUCUUUCUCCCCGUUGGUGAUGAAAGGCCUGAAUAUCUCCCAUCCCAGCUGGCCCCACCUCAGCCCCAGCCCUC | 0.347 |
| UUCUUUCCAUUCCUUGAUAGGCGAGUAUUCCAAAGCUGGUAUCGUAGCUGCCCUAAUGUUGCAUAUUAGGCGGCGGGGGCAGAGAUAAGGGCCAUCUCUCUGUGAUUCUG | 0.237 |
| CCACAGGUUUUUUGAGCUGGUGUGGAUUAGUUUAACUCUUGUAUUCAACCAUUAGUGCUACCACCUUCUCACAUUACAAUACAAUUACUGGAAGCAAGUACUGCAUUUCC | 0.401 |
| UGAGCCGCCACACCCGGCCAUCACACCUGGAUUUUCAGUGGGAGGUUUUUGGUUUGGAGACAUCCAAAGCCUGAAGCCAGGUGGGUGUGGGCAGGGGCUGCAUUUUAUGA | 0.653 |
| UUGGGGUGGUGCUGGGUCAUUACUUCUGAGCCCCAGCCCCAAUCCAGAGAAGCGCUGUUGCCCGCCCUCCACCCACUAGGUGAACAGCAGGAUGCCCUGUUGGGGGCUUC | 0.274 |
| CAUUUUGUUGUGUUUUUUGAGACAGGGUCUUGCUCUGUCGCCCAGGUUGUAAUGCAGUGGCGCAAUCUCAGCUCACUGCAACCUCUCUCUCCCGGGUUCAAGUGAUUCUC | 0.348 |
| UCCUAAGUCCAAUUGUUGAAAUUGGAUCAAAGUAGAAUUGUCAGAGGAACACAACAUUAAGCCAUUAGAAUAGAAGAGCUGUUGUCUCCUGUUUCUCUAACACUAACAUG | 0.292 |
| UCUUAAAUUUAUUUAAAACUUUUUUUAAUCCAGAUGUAGACUAUAUUCUAAAAAAUAAAAAAGCAAAUGUGUCAACUAAAUUGGACAAGCGUCUGGUCCUCAUUAAUCUG | 0.67 |

Series 2
Target: inorganic phosphate, free oxyanion
Method: microfluidic competitive inhibition
Matrix: in vitro, cell-free expressed
Tested at: not given
Setting: derived from inhibition constants, unchanged parent 615000 nM
Direction: lower = stronger binding
Starting sequence: PafA, mature enzyme, eGFP fusion (Elizabethkingia meningoseptica, UniProt Q9KJX5); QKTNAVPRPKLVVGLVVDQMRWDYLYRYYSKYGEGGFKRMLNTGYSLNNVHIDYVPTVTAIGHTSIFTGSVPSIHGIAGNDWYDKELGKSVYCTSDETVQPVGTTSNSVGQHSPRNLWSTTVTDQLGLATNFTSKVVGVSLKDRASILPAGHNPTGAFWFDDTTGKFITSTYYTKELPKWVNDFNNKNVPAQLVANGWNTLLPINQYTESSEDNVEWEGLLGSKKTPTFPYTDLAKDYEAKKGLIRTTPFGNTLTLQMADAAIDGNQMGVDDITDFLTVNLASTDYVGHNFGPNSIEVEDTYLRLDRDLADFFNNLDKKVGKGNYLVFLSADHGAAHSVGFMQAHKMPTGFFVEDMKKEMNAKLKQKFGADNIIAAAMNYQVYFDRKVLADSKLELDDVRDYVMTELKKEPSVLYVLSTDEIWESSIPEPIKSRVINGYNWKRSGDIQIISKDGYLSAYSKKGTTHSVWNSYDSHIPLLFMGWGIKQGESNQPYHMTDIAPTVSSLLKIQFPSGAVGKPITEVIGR
| Substitution | phosphate dissociation constant |
| --- | --- |
| F351G | 553 µM |
| R27G | 477 µM |
| I436V | 640 µM |
| I427V | 678 µM |
| S295V | 206 µM |
| I273V | 617 µM |
| W198G | 300 µM |
| R304V | 591 µM |
| K89G | 774 µM |
| V339A | 567 µM |
| F511G | 504 µM |
| D23V | 275 µM |
| T57V | 251 µM |
| N49V | 498 µM |
| E299G | 481 µM |
| I204V | 722 µM |
| L277G | 456 µM |
| N48V | 483 µM |
| D285G | < 2.04 µM |
| R144G | > 2050 µM |
| V523A | 655 µM |
| S146G | 656 µM |
| I52V | 362 µM |
| K142V | 2320 µM |
| T521G | 518 µM |

Series 3
Target: Interferon regulatory factor 5, full length, phosphomimetic (IRF5, Homo sapiens, UniProt Q13568-2, residues 1-514, S451D/S453D/S456D/S462D)
Method: protein-binding microarray
Form: double-stranded DNA, one strand shown
Matrix: in vitro
Tested at: 940 nM top
Setting: 60-bp whole probe
Added: salmon DNA 0.4 mg/ml
Baseline: random background probes
Direction: higher = stronger binding
Constant ends, left off below: GCCTAGCAC … GTCTTGATTCGCTTGACGCTGCTG
| Strand | fitted relative affinity [z-score] |
| --- | --- |
| TTAGGTATCGGTATCCGTTAGTGCTAG | 9.88 |
| TTAGGTATTGGTTTCGGTTAGTGCTAG | 10.9 |
| TTAGGTTCCGGTTTCGGATAGTGCTAG | 6.07 |
| TCATGATTGAATCTCCCACTGTGCTAG | 0.0713 |
| GACGGTATCGACTAGCGGGACGTGCTA | 5.06 |
| ATATATTTATGTATACACACGTGCTAG | 0.218 |
| TTAGAACTCGGGTTTCGATTAGTGCTA | 4.88 |
| TGAGGTTCCGGTTTCGGTTAGTGCTAG | 9.07 |

Series 4
Target: Ras GTPase-activating protein-binding protein 1, full length (G3BP1, Homo sapiens, UniProt Q13283)
Sequence of UniProt Q13283 (whole entry, looked up): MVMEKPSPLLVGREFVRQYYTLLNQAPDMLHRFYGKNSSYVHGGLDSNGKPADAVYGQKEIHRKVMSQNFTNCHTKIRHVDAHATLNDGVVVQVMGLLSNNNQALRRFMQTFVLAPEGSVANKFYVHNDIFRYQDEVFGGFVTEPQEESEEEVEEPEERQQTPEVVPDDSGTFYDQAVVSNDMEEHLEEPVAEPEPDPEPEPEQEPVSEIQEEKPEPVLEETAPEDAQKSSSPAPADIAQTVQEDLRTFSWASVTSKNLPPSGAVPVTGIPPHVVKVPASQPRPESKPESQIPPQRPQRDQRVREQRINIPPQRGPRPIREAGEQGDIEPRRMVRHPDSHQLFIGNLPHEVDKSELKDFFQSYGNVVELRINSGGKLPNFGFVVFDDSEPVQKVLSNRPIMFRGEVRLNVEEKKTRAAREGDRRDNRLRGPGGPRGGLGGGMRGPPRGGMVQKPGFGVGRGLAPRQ
Method: RNA Bind-n-Seq
Form: RNA
Matrix: in vitro
Tested at: 200 nM
Setting: whole 134-nt RNA, ends assumed
Added: 150 mM LiCl
Baseline: input library
Direction: higher = stronger binding
Library: 7-deaza-guanosine replaces G
Constant ends, left off below: GGGAGUUCUACAGUCCGACGAUC … UGGAAUUCUCGGGUGUCAAGG
| Strand | log2 enrichment |
| --- | --- |
| UCCUGUGCUACACAUCGUAUGUACCGAAUCGGGGUUUGGGGUUUUUGGGGAAAAAGGGGAAAGUAUUAUGUUACGCCGUUCGGAUCUGCA | 0.0674 |
| UAACUUUAGAGGAGGAUCUGAUGGAUAUGGCAGGGGACGUGGAUUUGGGGAUGGCUAUAAUGGGUAUGGAGGAGGACCUGGAGGUGGCAA | -0.112 |
| GCAGGAAGUAAAAACAAAUGGAAAUGUUUCGGAUAGUGGCAGGGGUGGGGGUUGCUAAGGAAAGGGUGGGAUGGGAGUGGGUAAAGAGUU | -0.0554 |
| CAAGUCCUGUGCUACACAUCGUAUGUACCGAAUCGGAGGAAAAAAAGGAAAAAGGAAAGUAUUAUGUUACGCCGUUCGGAUCUGCACUUC | -0.289 |
| AGUCCUGUGCUACACAUCGUAUGUACCGAAUCAAAUUUUUUUAAAUUUAAAUUUAAAAAAGUAUUAUGUUACGCCGUUCGGAUCUGCACU | -2.65 |
| CACAGACAACACGCACCCACACAGACACAGAGGGAAGGGGUUGGGAUGGGGACAGGGUGCACAGCAGGGCGGGGUAGGACCCCAGCCCCG | -0.266 |
| UCAAGUCCUGUGCUACACAUCGUAUGUACCGAAUCGGAAAAAGGUGGUUUUUGGAAAGUAUUAUGUUACGCCGUUCGGAUCUGCACUUCC | -0.15 |
| UAACUUUAGAGGAGGAUCUGAUGGAUAUGGCAGUGGACGUGGAUUUGGGGAUGGCUAUAAUGGGUAUGGAGGAGGAACUGGAGGUGGCAA | 0.381 |

Single results of other studies
FHL1 DNA-binding domain: Pre-rRNA-processing protein FHL1, DNA-binding domain (FHL1, Saccharomyces cerevisiae, UniProt P39521, residues 401-638)
Sequence of UniProt P39521 (401-638, looked up): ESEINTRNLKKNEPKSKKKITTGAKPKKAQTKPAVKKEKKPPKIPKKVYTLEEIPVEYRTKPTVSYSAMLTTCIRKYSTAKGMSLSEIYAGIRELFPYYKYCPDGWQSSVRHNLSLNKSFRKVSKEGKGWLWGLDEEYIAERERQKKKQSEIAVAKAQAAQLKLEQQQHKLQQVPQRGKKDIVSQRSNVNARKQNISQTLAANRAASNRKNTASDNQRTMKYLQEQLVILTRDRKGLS
| Substance | tested on | assay | system | setting | how to read | measurement | result |
| --- | --- | --- | --- | --- | --- | --- | --- |
| GGCGCA | FHL1 DNA-binding domain | SELEX-seq | double-stranded DNA, one strand shown, in vitro | not given, 6-bp core, flanks averaged | baseline: best-binding core, lower = stronger binding | relative binding free energy | 0.36 ddG/RT |
| lysobactin | Staphylococcus aureus | – | hemB transposon mutant | – | baseline: wild type | MIC | no effect |
| Cn1cncc1[C@@](O)(COc1ccc(C#N)cc1-c1ccc(OC(F)(F)F)cc1)c1ccc(C#N)cc1 | Receptor-type tyrosine-protein kinase FLT3 (FLT3, Homo sapiens, UniProt P36888, N841I) | cell-free assay, competition with immobilised ligand | – | 1 µM | – | remaining binding | 100% |
| GACGCA | FHL1 DNA-binding domain | SELEX-seq | double-stranded DNA, one strand shown, in vitro | not given, 6-bp core, flanks averaged | baseline: best-binding core, lower = stronger binding | relative binding free energy | 0 ddG/RT |

Repeated from above (series 3):
| Strand | fitted relative affinity [z-score] |
| --- | --- |
| TTAGGTATTGGTTTCGGTTAGTGCTAG | 10.9 |
| TCATGATTGAATCTCCCACTGTGCTAG | 0.0713 |
| ATATATTTATGTATACACACGTGCTAG | 0.218 |
| TGAGGTTCCGGTTTCGGTTAGTGCTAG | 9.07 |
| TTAGGTATCGGTATCCGTTAGTGCTAG | 9.88 |
